Measurements gathered from unrelated publications.
Every numbered part comes from another study and shows a few of its results, in no order.
Chain of UniProt P41595 (whole entry, looked up): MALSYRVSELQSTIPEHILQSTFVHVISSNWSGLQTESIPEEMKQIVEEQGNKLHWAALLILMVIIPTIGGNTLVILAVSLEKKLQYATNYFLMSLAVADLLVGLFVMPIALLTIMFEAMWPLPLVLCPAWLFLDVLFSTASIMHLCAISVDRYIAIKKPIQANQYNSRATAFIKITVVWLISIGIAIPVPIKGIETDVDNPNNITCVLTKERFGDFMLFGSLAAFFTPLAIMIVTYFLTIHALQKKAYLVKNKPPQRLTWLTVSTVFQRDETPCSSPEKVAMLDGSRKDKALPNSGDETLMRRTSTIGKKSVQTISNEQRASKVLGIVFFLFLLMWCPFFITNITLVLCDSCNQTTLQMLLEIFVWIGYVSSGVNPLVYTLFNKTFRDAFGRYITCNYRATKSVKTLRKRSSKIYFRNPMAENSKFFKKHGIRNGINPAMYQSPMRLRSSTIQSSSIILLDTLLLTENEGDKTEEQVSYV

Sample 1
Cell line: mouse MPNST tumor cells
Method: high-content nuclear imaging
Refers to: cell number
Concentration: 10 µM
Time: 12 h
Setting: mean of 2 replicates
Relative to: plate mean
Direction: higher = more cells
SMILES | nuclei count [z-score]
CN(C)CCOc1ccc(/C(=C(/CCCl)c2ccccc2)c2ccccc2)cc1 | -4.84
O=C(NCCO)c1cccc(-c2cc(Nc3ccc(OC(F)(F)F)cc3)ncn2)c1 | 4.29
C[C@@H]1C[C@H]2[C@@H]3CCC4=CC(=O)C=C[C@]4(C)[C@@]3(Cl)[C@@H](O)C[C@]2(C)[C@@]1(OC(=O)c1ccco1)C(=O)CCl | 1.53

Sample 2
Target: High affinity nerve growth factor receptor (NTRK1, Homo sapiens, UniProt P04629)
Chain of UniProt P04629 (whole entry, looked up): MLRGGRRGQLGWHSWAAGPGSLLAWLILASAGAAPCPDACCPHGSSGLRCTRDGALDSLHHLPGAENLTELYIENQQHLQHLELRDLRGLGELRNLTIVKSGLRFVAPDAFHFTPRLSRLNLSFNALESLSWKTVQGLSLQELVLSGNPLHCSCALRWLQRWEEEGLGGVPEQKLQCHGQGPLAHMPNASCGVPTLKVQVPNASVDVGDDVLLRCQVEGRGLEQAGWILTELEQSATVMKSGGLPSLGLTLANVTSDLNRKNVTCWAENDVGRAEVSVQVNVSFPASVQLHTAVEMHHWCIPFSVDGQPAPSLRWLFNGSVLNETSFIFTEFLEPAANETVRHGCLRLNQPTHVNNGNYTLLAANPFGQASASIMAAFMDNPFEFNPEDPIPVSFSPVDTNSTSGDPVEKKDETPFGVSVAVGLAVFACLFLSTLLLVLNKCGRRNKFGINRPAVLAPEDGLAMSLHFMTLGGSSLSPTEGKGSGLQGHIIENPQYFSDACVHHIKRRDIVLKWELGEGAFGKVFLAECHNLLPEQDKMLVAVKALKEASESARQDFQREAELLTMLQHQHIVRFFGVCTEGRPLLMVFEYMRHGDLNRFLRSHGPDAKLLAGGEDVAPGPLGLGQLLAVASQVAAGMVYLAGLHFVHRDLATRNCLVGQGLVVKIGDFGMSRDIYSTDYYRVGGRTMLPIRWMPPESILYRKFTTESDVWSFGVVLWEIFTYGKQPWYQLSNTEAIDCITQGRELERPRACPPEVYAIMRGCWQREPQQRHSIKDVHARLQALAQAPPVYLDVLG
Effect on: enzyme activity
Mode: inhibitor
Concentration: 0.5 µM
Relative to: control
Compound | remaining activity [%]
CS(=O)(=O)CCNCc1ccc(-c2ccc3ncnc(Nc4ccc(OCc5cccc(F)c5)c(Cl)c4)c3c2)o1 | 99.2
CCOc1cc2ncnc(Nc3cccc(Br)c3)c2cc1OCC | 89.6
CC(=O)O/N=C1/C(c2c(O)[nH]c3cc(Br)ccc23)=Nc2ccccc21 | 54.7
Cc1ccc(NC(=O)c2ccc(CN3CCN(C)CC3)cc2)cc1Nc1nccc(-c2cccnc2)n1 | 102
CCN1/C(=C/C(C)=O)Sc2ccc(OC)cc21 | 85.7
O=C1NC(=O)/C(=C/c2ccc3nccnc3c2)S1 | 94.2

Mixed results
Structure (SMILES) | target or system | assay | system | setting | quantity | value
CC(C)n1cnc(-c2ccc(F)cc2)c1-c1ncc(C(=O)Nc2ccc(N3CCN(C)CC3)cc2)[nH]1 | – | phase 2a clinical trial, refers to: neoplasms (SOC) | idiopathic pulmonary fibrosis patients | 30 mg once daily, grade 1 maximum intensity | patients with TEAEs | 0%
CCOC(=O)CN(C(=O)c1ccn2ncc(-c3ccc(C(=O)NC)cc3)c2c1)c1ccc(Cl)cc1 | – | – | C57BL/6 IFN-γ knockout mouse, female, plasma | oral, 10 mg/kg, 1 h | plasma concentration | 242 nM
N#CN1CC[C@@H](C(=O)Nc2nc3c(s2)CN(C(=O)CN=[N+]=[N-])CC3)C1 | 5-hydroxytryptamine receptor 2B (HTR2B, Homo sapiens, UniProt P41595) | ligand displacement | – | 10 µM | inhibition | 5.55%

Repeated from above (mixed results):
Structure (SMILES) | target or system | assay | system | setting | quantity | value
CC(C)n1cnc(-c2ccc(F)cc2)c1-c1ncc(C(=O)Nc2ccc(N3CCN(C)CC3)cc2)[nH]1 | – | phase 2a clinical trial, refers to: neoplasms (SOC) | idiopathic pulmonary fibrosis patients | 30 mg once daily, grade 1 maximum intensity | patients with TEAEs | 0%
